# Measured values from different studies.
# A part holds a random share of what one study measured.

# Block 1 — method: universal PBM; form: double-stranded DNA, one strand shown; sample: in vitro; tested at: 600 nM; reading: higher = stronger binding
# Target: Sal-like protein 4, full length isoform A (SALL4, Homo sapiens, UniProt Q9UJQ4, residues 1-1053)
# Chain of UniProt Q9UJQ4 (whole entry, looked up): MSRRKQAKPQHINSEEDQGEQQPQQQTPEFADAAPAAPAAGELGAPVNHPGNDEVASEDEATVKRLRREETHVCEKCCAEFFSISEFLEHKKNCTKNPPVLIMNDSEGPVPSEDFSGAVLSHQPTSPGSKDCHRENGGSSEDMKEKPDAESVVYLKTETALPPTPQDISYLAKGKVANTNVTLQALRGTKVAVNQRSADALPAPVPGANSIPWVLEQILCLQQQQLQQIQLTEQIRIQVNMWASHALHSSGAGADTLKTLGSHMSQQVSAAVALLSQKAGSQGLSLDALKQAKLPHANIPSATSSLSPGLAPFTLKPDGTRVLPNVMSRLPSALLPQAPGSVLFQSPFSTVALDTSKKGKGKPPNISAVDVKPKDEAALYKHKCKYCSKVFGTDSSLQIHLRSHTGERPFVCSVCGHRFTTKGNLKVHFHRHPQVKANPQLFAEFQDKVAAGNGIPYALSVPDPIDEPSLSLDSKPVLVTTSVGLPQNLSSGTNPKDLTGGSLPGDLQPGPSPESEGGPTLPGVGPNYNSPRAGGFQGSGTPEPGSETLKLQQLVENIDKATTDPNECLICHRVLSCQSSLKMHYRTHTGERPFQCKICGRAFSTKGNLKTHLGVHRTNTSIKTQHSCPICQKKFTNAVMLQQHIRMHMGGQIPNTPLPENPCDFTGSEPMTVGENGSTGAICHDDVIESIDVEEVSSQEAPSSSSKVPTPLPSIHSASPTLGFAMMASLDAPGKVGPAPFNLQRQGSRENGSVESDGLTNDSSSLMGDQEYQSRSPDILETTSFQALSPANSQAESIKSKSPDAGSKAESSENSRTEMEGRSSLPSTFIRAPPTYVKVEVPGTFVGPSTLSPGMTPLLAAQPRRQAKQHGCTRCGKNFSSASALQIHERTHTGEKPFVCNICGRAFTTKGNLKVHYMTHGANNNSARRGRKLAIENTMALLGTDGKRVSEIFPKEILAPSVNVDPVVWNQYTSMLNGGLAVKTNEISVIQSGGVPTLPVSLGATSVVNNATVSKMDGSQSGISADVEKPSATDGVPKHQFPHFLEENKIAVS
# Notes: 8-mer, flanks averaged, mean of replicates
Sequence,E-score
CTTGTAAC,0.206
CGTTCTAA,0.065
ACTCGCAA,0.139
AAACTCTA,0.183
GAGGTTTA,0.0827
AACCGTAG,-0.132
AATTACAA,0.315
CTGCCCAA,-0.225

# Block 2 — effect on: peptide-MHC binding; form: peptide; tested at: concentration not given
# Target: HLA class I histocompatibility antigen, A alpha chain, allele A*25:01 (Homo sapiens, UniProt P04439)
Sequence,binding
LLFRMILNY,inactive
SPVMGVIGF,inactive
RTDNGGWAH,inactive
MARPADASM,inactive
MEDCPNEGV,inactive

# Block 3 — target: UBE2D3 UBC core domain (UniProt P61077); method: yeast two-hybrid; sample: yeast; notes: mostly zero background; reference: not given; reading: higher = stronger interaction
# Chain of UniProt P61077 (whole entry, looked up): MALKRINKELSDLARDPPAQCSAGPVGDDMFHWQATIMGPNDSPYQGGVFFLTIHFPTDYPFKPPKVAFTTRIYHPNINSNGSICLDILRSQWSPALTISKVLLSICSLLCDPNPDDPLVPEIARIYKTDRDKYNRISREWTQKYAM
# B1: SHPRH RING domain (UniProt Q149N8); chain KTSGGVNPEPCPICARQLGKQWAVLTCGHCFCNECISIIIEQYSVGSHRSSIKCAICRQTTSHKEISY
# B2: RNF32 RING domain (UniProt Q9H0A6); chain VQALRRETHECSICLAPLSAAGGQRVGAGRRSREMALLSCSHVFHHACLLALEEFSVGDRPPFHACPLCRSCYQKKILEC
# B3: TRIM68 RING domain (UniProt Q6AZZ1); chain LVEAIVEEVACPICMTFLREPMSIDCGHSFCHSCLSGLWEIPGESQNWGYTCPLCRAPVQPRNLRP
# B4: TRIM34 RING domain (UniProt Q9BYJ4); chain ILLNVQEEVTCPICLELLTEPLSLDCGHSLCRACITVSNKEAVTSMGGKSSCPVCGISYSFEHLQA
# B5: NHLRC1 RING domain (UniProt Q6VVB1); chain MREAEISLLECKVCFEKFGHRQQRRPRNLSCGHVVCLACVAALAHPRTLALECPFCRRACRGCDTSD
# B6: TRIM74 RING domain (UniProt Q86UV6); chain SLLELEDWLQCPICLEVFKESLMLQCGHSYCKGCLVSLSYHLDTKVRCPMCWQVVDGSSSLP
# B7: UBE4B RING domain (UniProt O95155); chain KNARAEIDYSDAPDEFRDPLMDTLMTDPVRLPSGTIMDRSIILRHLLNSPTDPFNRQTLTESMLEPVPELKEQIQAWMREKQNSDH
# B8: RNF7 RING domain (UniProt Q9UBF6); chain AICRVQVMDACLRCQAENKQEDCVVVWGECNHSFHNCCMSLWVKQNNRCPLCQQDWVVQRIGK
# B9: RNF130 RING domain (UniProt Q86XS8); chain DKETDPDFDHCAVCIESYKQNDVVRILPCKHVFHKSCVDPWLSEHCTCPMCKLNILKALGIV
# B10: RNF10 RING domain (UniProt Q8N5U6); chain VRICSHEVPSCPICLYPPTAAKITRCGHIFCWACILHYLSLSEKTWSKCPICYSSVHKKDLKS
# B11: ARIH1 RING domain (UniProt Q9Y4X5); chain NTRSSAQDMPCQICYLNYPNSYFTGLECGHKFCMQCWSEYLTTKIMEEGMGQTISCPAHGCDILVDDNTVM
Sequence,lacZ reporter activity
SNNDLASLFECPVCFDYVLPPILQCQSGHLVCSNCRPKLTCCPTCRGPLGSIRNLA (SIAH1 RING domain (UniProt Q8IUQ4)),2010
B1 (SHPRH RING domain),0
B2 (RNF32 RING domain),0
B3 (TRIM68 RING domain),0
B4 (TRIM34 RING domain),0
B5 (NHLRC1 RING domain),0
B6 (TRIM74 RING domain),0
KITELNPHLMCALCGGYFIDATTIVECLHSFCKTCIVRYLETNKYCPMCDVQVHKTRPLL (PCGF2 RING domain (UniProt P35227)),0
B7 (UBE4B RING domain),0
GSEEEEIPFRCFICRQAFQNPVVTKCRHYFCESCALEHFRATPRCYICDQPTGGIFNPA (RNF113B RING domain (UniProt Q8IZP6)),0
B8 (RNF7 RING domain),0
B9 (RNF130 RING domain),14700
B10 (RNF10 RING domain),0
EDVLSKDAGECAICLEELQQGDTIARLPCLCIYHKGCIDEWFEVNRSCPEHPSD (ZNRF2 RING domain (UniProt Q8NHG8)),15500
B11 (ARIH1 RING domain),0
VPADASPDSKCPICLDRFDNVSYLDRCLHKFCFRCVQEWSKNKAECPLCKQPFDSIFHSV (TOPORS RING domain (UniProt Q9NS56)),16700

# Block 4 — method: RNA Bind-n-Seq; form: RNA; sample: in vitro; tested at: 365 nM; reference: no-protein control; reading: higher = stronger binding
# Target: RNA binding protein fox-1 homolog 2, RRM domain, GST-SBP tag (RBFOX2, Homo sapiens, UniProt O43251-10, residues 100-194)
# Notes: natural RNA segment, single round, ends assumed
# All sequences stand within: GGGAGUUCUACAGUCCGACGAUC … UGGAAUUCUCGGGUGCCAA
# Construct (chain): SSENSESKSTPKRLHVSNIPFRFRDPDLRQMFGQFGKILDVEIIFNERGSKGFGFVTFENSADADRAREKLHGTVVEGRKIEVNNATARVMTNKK
Sequence,RBNS enrichment (R)
GAGCCUCCAAGCUGAUCAAGCAAUUCUUUCCUGUAAUCUGAUAGGAGGCAGCAAGCAAGGACAUCCUCCAGUGGUUUCCUGGAGCCACCGGCUCACUGUCUGCAGCACCU,0.266
GGACUUUCACACCAUAAGGAGAUUUCUGUUUUUCUUUUUGGCUGUUAAUGCUUGUCUAUAACAUUGGAGCCAUCACAAGAAUGUUCAUUUGGAAUGAAGGCUGCAGGCAC,0.561
AGGCUGAGUGUUACCUUAAAAUGCCUUGUGGUCUCCACCUCUAAAGCUAUAAAAGUGUCUUAGAGAGAAUACUCAUCUAGUAAAUAGUGUGAGUUUCCAAUGUAUUAUCU,0.337
UUGUUUUAGCAACUGAAAAUUGUACUUGGUCACUUUUGUGCUUGAGGAGGCCCAUUUUCUGCCUGGCAGGGGGCAGGUCUGUGCCCUCCCGCUGACUCCUGCUGUGUCCU,0.601
UGUGCCAUACCAGCUGAUCUGUAGGCCUUUUCUAUGAGUCCUACUCCAUCAGGGUUUCUGCUGUUAGAAACAGGCCAAUUAUCUGCCAGGUGAAGGAAGGCAUCCCUUGU,0.243
GCCGCUCUCUGUAAGUGUUUGCUUGUGCAAAAGGGAAUAGUGCCGUGGAGGUGUGUGUGUCCAUGGCAUCCGGAGCGAGGCGACUGUCCUGCGUGGGUAGCCCUCGGCCG,3
UAGGCUGGGCCUCCCCUGGGCAGGGUUCUCCAAGGGCCCGGUUUCCCGGCCCUUACCUUUCCUGAUGCCCCUGACAUCAUCAUUCUUGUGGGAGACAGCAGCCUGUAUGU,0.353
AUAACCAGUUCCAUCAUCCUGGUGGAACUUGAACAUUUAGAGUUUAUCUAGAGAGCUUGGUUAAUCUUUCCAUAUUAUUUGUAGUAUUGGUCACAAAUGCUGUUCCCUCU,0.252

# Mixed results
Sequence,organism,assay,test system,conditions,scale,measurement,result
YKVKRRLVFGADD,Saccharomyces cerevisiae,"peptide binding, yeast competitive growth sequencing","peptide, cyclin F-Cln2 fusion","concentration not given, RxL motif peptides",direction not given,binding score,10
